Results of several laboratories.
Protocols differ between the studies behind these lines. “And” joins repeats or separate records; there may be more than shown. Numbers after ± are the reported error.
Sequence of UniProt P27361 (whole entry, looked up): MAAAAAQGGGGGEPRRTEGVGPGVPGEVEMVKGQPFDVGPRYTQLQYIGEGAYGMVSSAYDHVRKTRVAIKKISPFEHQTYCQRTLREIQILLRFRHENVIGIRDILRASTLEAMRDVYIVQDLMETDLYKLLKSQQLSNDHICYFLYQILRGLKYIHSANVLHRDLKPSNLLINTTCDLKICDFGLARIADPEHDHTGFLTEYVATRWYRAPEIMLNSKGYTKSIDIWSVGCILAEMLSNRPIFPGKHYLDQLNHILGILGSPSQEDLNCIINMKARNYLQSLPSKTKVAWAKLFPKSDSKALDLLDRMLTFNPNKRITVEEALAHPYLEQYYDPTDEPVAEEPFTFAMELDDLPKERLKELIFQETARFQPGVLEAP
Sequence of UniProt P25021 (whole entry, looked up): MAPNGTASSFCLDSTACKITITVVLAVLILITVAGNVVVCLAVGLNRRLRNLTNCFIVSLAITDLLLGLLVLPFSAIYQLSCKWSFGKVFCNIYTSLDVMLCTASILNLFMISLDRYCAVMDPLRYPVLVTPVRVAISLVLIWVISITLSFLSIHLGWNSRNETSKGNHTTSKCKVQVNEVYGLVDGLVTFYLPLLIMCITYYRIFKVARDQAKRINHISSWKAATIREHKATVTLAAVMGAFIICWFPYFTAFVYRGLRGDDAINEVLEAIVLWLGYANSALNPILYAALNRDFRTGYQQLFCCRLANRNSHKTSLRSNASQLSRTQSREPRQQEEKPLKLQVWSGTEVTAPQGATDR
Sequence of UniProt Q2TAA2 (whole entry, looked up): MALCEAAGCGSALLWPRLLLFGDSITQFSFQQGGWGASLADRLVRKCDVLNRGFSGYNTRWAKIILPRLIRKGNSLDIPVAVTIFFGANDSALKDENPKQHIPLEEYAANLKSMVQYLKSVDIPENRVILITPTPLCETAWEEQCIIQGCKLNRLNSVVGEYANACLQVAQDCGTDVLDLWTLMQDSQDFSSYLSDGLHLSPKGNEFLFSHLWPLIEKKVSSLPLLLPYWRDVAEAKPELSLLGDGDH
Sequence of UniProt Q13224 (whole entry, unmodified, looked up): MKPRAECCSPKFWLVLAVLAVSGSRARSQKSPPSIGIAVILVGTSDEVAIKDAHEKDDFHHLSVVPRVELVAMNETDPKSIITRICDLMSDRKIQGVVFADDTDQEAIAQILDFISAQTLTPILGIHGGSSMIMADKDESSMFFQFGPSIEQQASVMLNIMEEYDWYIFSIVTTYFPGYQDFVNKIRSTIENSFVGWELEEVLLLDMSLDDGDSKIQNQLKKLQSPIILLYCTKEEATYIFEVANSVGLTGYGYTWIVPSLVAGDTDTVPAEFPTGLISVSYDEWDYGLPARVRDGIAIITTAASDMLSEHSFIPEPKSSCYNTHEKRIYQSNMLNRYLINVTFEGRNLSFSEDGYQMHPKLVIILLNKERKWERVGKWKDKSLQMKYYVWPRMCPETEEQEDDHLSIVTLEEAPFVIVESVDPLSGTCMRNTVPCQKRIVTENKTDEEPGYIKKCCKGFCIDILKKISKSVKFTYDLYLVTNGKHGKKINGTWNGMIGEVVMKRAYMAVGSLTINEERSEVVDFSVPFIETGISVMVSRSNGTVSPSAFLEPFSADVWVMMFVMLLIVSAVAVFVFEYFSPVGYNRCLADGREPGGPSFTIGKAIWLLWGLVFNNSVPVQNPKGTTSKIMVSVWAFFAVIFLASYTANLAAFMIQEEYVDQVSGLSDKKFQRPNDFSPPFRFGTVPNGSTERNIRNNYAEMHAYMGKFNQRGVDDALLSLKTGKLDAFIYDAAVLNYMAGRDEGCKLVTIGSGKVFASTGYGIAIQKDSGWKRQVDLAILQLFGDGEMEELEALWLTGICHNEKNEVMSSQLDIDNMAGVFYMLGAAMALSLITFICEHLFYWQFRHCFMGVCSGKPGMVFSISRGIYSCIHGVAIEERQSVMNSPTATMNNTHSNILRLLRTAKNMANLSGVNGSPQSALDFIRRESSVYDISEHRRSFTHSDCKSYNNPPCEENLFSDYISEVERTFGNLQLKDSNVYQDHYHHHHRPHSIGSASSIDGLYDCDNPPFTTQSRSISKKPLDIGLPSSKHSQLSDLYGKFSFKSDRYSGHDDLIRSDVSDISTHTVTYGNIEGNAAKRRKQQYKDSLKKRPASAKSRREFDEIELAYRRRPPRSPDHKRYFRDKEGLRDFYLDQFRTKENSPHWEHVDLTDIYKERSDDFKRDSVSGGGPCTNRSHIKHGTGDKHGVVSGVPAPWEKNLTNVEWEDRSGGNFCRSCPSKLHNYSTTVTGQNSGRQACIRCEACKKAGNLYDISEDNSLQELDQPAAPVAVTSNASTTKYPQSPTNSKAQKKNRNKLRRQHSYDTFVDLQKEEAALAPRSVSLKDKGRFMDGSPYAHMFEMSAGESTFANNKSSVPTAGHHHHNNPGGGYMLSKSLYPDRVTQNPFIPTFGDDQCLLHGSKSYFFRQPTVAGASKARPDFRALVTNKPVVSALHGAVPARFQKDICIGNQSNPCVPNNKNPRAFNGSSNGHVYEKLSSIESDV
Sequence of UniProt O42275 (whole entry, looked up): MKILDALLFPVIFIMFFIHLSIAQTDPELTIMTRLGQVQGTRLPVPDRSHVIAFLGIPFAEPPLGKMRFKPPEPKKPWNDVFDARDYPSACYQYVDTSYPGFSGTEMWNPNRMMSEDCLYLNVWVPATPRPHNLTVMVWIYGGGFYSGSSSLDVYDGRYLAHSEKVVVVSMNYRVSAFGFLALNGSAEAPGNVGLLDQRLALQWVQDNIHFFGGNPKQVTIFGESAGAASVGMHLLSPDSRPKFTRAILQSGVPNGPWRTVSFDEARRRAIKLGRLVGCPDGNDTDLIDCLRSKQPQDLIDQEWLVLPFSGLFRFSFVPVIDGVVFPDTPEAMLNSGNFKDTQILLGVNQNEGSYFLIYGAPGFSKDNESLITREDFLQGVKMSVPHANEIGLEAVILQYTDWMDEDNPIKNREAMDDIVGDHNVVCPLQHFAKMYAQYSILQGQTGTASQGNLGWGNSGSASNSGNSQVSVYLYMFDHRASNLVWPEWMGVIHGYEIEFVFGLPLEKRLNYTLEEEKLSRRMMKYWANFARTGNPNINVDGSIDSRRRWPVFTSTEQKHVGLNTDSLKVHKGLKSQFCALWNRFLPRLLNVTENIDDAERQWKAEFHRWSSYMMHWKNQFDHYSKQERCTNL
Sequence of UniProt P47901 (whole entry, looked up): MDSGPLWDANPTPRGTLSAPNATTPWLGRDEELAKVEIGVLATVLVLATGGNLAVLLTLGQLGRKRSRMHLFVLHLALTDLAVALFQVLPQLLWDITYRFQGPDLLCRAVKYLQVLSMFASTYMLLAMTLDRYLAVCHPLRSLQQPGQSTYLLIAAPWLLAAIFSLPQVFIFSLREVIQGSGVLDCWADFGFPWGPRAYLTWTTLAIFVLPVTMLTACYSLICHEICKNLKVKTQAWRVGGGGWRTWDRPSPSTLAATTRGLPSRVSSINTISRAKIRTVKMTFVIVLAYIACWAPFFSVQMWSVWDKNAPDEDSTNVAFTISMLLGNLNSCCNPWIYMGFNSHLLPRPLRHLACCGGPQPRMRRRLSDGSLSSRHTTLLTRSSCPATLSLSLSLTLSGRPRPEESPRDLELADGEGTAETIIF
Sequence of UniProt Q9UKI8 (whole entry, looked up): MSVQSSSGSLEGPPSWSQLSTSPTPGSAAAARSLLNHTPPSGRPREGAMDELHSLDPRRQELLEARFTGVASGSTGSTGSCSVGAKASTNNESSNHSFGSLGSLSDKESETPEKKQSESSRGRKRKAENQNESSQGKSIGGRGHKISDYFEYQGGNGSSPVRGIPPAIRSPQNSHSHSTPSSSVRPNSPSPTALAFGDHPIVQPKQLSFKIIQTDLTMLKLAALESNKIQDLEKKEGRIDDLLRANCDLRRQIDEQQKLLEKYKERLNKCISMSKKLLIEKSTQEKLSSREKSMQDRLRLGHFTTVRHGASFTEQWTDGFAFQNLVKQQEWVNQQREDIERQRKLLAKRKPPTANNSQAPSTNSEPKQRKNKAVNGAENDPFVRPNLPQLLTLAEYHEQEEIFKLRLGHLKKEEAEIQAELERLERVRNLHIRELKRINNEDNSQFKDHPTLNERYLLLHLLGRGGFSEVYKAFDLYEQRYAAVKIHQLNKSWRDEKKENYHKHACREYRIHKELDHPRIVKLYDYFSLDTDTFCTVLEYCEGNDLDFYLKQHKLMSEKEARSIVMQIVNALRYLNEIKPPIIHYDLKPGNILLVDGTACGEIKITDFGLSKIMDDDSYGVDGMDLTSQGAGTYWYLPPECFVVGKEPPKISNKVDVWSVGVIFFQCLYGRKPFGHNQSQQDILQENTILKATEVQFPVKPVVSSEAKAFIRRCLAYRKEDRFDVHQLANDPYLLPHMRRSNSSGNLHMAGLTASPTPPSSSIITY
Sequence of UniProt P00942 (whole entry, unmodified, looked up): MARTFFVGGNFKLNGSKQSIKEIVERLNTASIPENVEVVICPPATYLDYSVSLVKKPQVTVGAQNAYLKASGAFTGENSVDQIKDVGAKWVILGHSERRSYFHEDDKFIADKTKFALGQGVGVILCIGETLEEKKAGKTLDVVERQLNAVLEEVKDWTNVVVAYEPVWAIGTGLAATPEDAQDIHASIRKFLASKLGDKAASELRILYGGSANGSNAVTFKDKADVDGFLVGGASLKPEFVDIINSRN
Sequence of UniProt Q5XI64 (whole entry, looked up): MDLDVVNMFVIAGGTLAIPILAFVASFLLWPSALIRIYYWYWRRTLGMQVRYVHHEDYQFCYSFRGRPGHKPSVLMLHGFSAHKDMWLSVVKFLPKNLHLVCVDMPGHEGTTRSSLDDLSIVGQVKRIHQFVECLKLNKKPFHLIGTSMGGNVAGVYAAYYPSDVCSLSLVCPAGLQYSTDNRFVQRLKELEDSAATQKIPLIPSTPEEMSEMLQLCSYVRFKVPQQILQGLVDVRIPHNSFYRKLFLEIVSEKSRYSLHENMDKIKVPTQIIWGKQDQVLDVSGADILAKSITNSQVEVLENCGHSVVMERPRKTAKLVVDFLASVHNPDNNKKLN

SMILES	target	assay	test system	setting	how to read	endpoint	result
Cc1[nH]c2ccccc2c1-c1csc(-c2c[nH]c3ccccc23)n1	Regulatory protein E2, DNA-binding domain (Human papillomavirus 16, UniProt P03120)	thermal shift	–	concentration not given	–	binding	no binding
CC(C)[C@@H](O)CC[C@@H](C)[C@H]1CC[C@H]2[C@@H]3CC=C4C[C@@H](O)CC[C@]4(C)[C@H]3CC[C@]12C	Glutamate NMDA receptor; GRIN1/GRIN2B (GRIN1/GRIN2B, Homo sapiens, UniProt Q05586+Q13224, F654A)	positive allosteric modulator, two-electrode voltage clamp	Xenopus oocytes expressing GluN1-F654A	10 µM, 0.02% cremophor, with: 100 µM glutamate and glycine	relative to: without compound	current response	149 ± 6.5%
Nc1nc2c(ncn2[C@@H]2O[C@@H]3COP(=O)(O)O[C@H]4[C@@H](O)[C@H](n5cnc6c(N)ncnc65)O[C@@H]4COP(=O)(O)O[C@H]4[C@@H](O)[C@H](n5cnc6c(N)ncnc65)O[C@@H]4COP(=O)(O)O[C@H]3[C@H]2O)c(=O)[nH]1	Thoeris anti-defense 1 (tad1, Bacillus phage SBSphiJ7, UniProt P0DW57)	native gel and ITC	–	concentration not given	–	binding	binds
Cc1cc(C)n2c1C=C1C=CC(CCC(=O)Nc3ccc(OCC(=O)N[C@@H]4C(=O)N5[C@@H]4SC(C)(C)[C@@H]5C(=O)[O-])cc3)=[N+]1[B-]2(F)F.[Na+]	Penicillin-binding protein 2X (Streptococcus pneumoniae R6, UniProt P59676)	whole-cell time course	live Streptococcus pneumoniae cells	–	–	kinact/KI	206000 ± 30000 M⁻¹ s⁻¹
CN(C(=O)n1cnc(-c2ccc[n+]([O-])c2)c1)C1CCCCC1	Monoacylglycerol lipase ABHD6 (Abhd6, Rattus norvegicus, UniProt Q5XI64)	FP probe labelling, competitive ABPP	rat brain soluble fraction	100 µM	–	inhibition	96.4%
CCN(CC)CCCC[C@H](NC(=O)[C@H](CC(C)C)NC(=O)[C@H](C)NC(=O)[C@H](Cc1ccccc1)NC(=O)c1ccc(C(C)(C)C)cc1)C(=O)N[C@@H](CO)C(=O)OC	HRH2 (Homo sapiens, UniProt P25021)	antagonist, radioligand binding	–	10 µM	relative to: control binding	specific binding	98.6%
C[C@H]1CN(c2n[nH]c3nc(N[C@H]4CC[C@H](NS(=O)(=O)CCC(F)(F)F)CC4)ncc23)CCO1	Paxillin (PXN, Homo sapiens, UniProt P49023)	competitor, Kinobeads competition, measured: PXN	human cell extract	0.032 µM	relative to: vehicle	relative abundance	0.94
CCCCCCCCCCCC(=O)N[C@H]1CCOC1=O	qscR (Pseudomonas aeruginosa, UniProt G3XD77)	ligand binding, FRET displacement	intact cells	apparent affinity	–	K0.5	10.7 nM
CN1CCN(c2cc(-c3ccncc3)c(-c3ccc4ccccc4c3)nn2)CC1	AVPR1B (Homo sapiens, UniProt P47901)	antagonist, FLIPR	–	10 µM	–	inhibition	21.3%
O=C(O)c1ccc(CN2C(=O)CN(C(=O)c3ccco3)c3cc(-c4ccccc4)c(Oc4ccc(C(=O)O)cc4)cc32)cc1	GUCY1B1, with alpha-1 subunit (Homo sapiens, UniProt Q02153, H105A)	activator, purified enzyme	–	concentration not given	relative to: basal	sGC activity	4.8 fold
COc1ncccc1-c1cnn2ccc(N3CCN(C(=O)OC(C)C)CC3)nc12	Ribosomal protein S6 kinase alpha-4, C-terminal kinase domain (RPS6KA4, Homo sapiens, UniProt O75676)	KINOMEscan binding	–	1 µM	relative to: untreated control	remaining binding	100%
O=C(c1ccc(Cl)cc1)N1CCN2C(=O)N(OC(=O)N3CCOc4ccccc43)C(=O)C2C1 (centres unmarked)	Isoamyl acetate-hydrolyzing esterase 1 homolog (IAH1, Homo sapiens, UniProt Q2TAA2)	MS-based ABPP	SW-620 conditioned medium	10 µM, 1 h, 37 °C	relative to: compound over DMSO, lower = more inhibition	median protein ratio	0.83
Clc1cc2c(cc1Cl)Oc1cc(Cl)c(Cl)cc1O2	Uncharacterized protein (Takifugu rubripes, UniProt Q4JHL4)	reporter gene, agonist, dual-luciferase	COS-7	24 h	relative to: top over bottom	maximal fold induction	6.57 ± 1.83
COC(=O)[C@@]1(O)C[C@H]2O[C@]1(C)n1c3ccccc3c3c4c(c5c6ccccc6n2c5c31)C(=O)NC4	MAPK3 (Homo sapiens, UniProt P27361)	ADP-Glo	–	2.91 µM, with: MBP substrate	–	kinase activity	102% and 126% and 94.3%
O=C[C@H](O)COP(=O)(O)O	TPI1 (Saccharomyces cerevisiae, UniProt P00942, S211G)	substrate, GPDH/NADH-coupled	–	pH 4.9, 25 °C	–	kcat	4100 ± 400 s⁻¹
Cc1nn(C)cc1-c1nc2c(N3CCN(Cc4ccc(Cl)cc4)CC3)c(Cl)cnc2[nH]1	TLK1 (Homo sapiens, UniProt Q9UKI8)	KINOMEscan	–	1 µM	relative to: DMSO control	remaining binding	66%
[2H]c1c([2H])c([C@]2([2H])CCCN2C(=O)C(C)(C)Oc2ccc3cn[nH]c3c2)c([2H])c([2H])c1C([2H])([2H])[2H]	EPHB6 (Homo sapiens, UniProt O15197)	KINOMEscan	–	1 µM	relative to: DMSO control	remaining binding	88%
CC1(C)C(C=C(Cl)Cl)C1C(=O)OCc1cccc(Oc2ccccc2)c1 (centres unmarked)	uncharacterized protein (Anopheles coluzzii, UniProt A0A6E8VQK1)	enzyme activity, inhibitor	Sf9 cell homogenate	186 µM, 0.1667 h, with: α-naphthyl acetate substrate	relative to: no inhibitor	remaining activity	3.3%
CN[C@@H]1C[C@H]2O[C@@](C)([C@@H]1OC)n1c3ccccc3c3c4c(c5c6ccccc6n2c5c31)C(=O)NC4	CDC2-like kinase 1 (Trypanosoma brucei brucei, UniProt Q382U0)	kinase activity, ADP-Glo	–	0.03906 µM	–	remaining activity	66.8%
O=C(O)CCC(=O)C(=O)O	HIF1AN (Homo sapiens, UniProt Q9NWT6, Y93A)	cosubstrate	–	tunnel mutant Y93A	–	KI over Km	~20 fold
COc1cc(N)c(Cl)cc1C(=O)NC1CN2CCC1CC2 (centres unmarked)	Mas-related G-protein coupled receptor member F (MRGPRF, Homo sapiens, UniProt Q96AM1)	β-arrestin recruitment, TANGO luminescence, measured: MRGPRF	–	concentration not given	relative to: basal luminescence	log2 fold change	-0.3
CCOC(=O)COc1ccc2c(=O)c3ccccc3oc2c1	ache (Electrophorus electricus, UniProt O42275)	enzyme activity	–	3.36 µM, with: substrate 6.90 mM	higher = faster reaction	reaction velocity	0.0034 a.u.
Nc1ncc(-c2nc(N3CCOCC3)nc(N3CCOCC3)n2)c(C(F)F)n1	EGFR (Homo sapiens, UniProt P00533, G719S)	KINOMEscan	–	10 µM	–	remaining binding	75%
Cc1ncsc1-c1ccc(CNC(=O)[C@@H]2C[C@@H](O)CN2C(=O)[C@@H](NC(=O)COCCOCCOCCNC(=O)C[C@@H]2N=C(c3ccc(Cl)cc3)c3c(sc(C)c3C)-n3c(C)nnc32)C(C)(C)C)cc1	VHL-ElonginB-ElonginC complex human	ternary complex formation, fluorescence polarization	–	with: PBRM1 bromodomain 5	–	cooperativity factor	3.3
COc1ccc(N2C(=O)N(c3c(C)cccc3Cl)Cc3cnc(Nc4ccc(C5CCN(C)CC5)cc4OC)nc32)nc1	LCK (Homo sapiens, UniProt P06239)	kinase activity	–	0.5 µM	–	inhibition	97%
CC12CCC(CC1)C(C)(C)O2	1,8-cineole 2-endo-monooxygenase (cinA, Citrobacter braakii, UniProt Q8VQF6, Y81F)	substrate binding, spin shift difference spectroscopy	–	concentration not given, Y81F mutant	relative to: wild type, higher = weaker binding	Ks change	~20 fold

Repeated from above:
SMILES	target	assay	test system	setting	how to read	endpoint	result
CC(C)[C@@H](O)CC[C@@H](C)[C@H]1CC[C@H]2[C@@H]3CC=C4C[C@@H](O)CC[C@]4(C)[C@H]3CC[C@]12C	Glutamate NMDA receptor; GRIN1/GRIN2B (GRIN1/GRIN2B, Homo sapiens, UniProt Q05586+Q13224, F654A)	positive allosteric modulator, two-electrode voltage clamp	Xenopus oocytes expressing GluN1-F654A	10 µM, 0.02% cremophor, with: 100 µM glutamate and glycine	relative to: without compound	current response	149 ± 6.5%
Nc1nc2c(ncn2[C@@H]2O[C@@H]3COP(=O)(O)O[C@H]4[C@@H](O)[C@H](n5cnc6c(N)ncnc65)O[C@@H]4COP(=O)(O)O[C@H]4[C@@H](O)[C@H](n5cnc6c(N)ncnc65)O[C@@H]4COP(=O)(O)O[C@H]3[C@H]2O)c(=O)[nH]1	Thoeris anti-defense 1 (tad1, Bacillus phage SBSphiJ7, UniProt P0DW57)	native gel and ITC	–	concentration not given	–	binding	binds
